Assay results gathered from unrelated publications.
Protocols differ between the studies behind these lines. “And” joins repeats or separate records; there may be more than shown. ± gives the spread as reported.
UCHL1: Ubiquitin carboxyl-terminal hydrolase isozyme L1 (UCHL1, Homo sapiens, UniProt P09936)
Faah: Fatty-acid amide hydrolase 1 (Faah, Rattus norvegicus, UniProt P97612)
TOP2B: DNA topoisomerase 2-beta (TOP2B, Homo sapiens, UniProt Q02880)
Voltage-dependent P/Q-type calcium channel subunit alpha-1A: Voltage-dependent P/Q-type calcium channel subunit alpha-1A (Homo sapiens, UniProt O00555)
T1: G-quadruplex DNA, intermolecular, 8-nt strands; chain GGAAGGGG; chain GGTTGGGG
T2: RNA aptamer del11, 5'-triphosphate, 2',3'-cyclic phosphate; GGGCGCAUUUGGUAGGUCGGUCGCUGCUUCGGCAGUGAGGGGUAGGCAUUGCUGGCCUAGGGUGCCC

Under “enzyme bound with compound”, `Cc1cc2nc3c(=O)[nH]c(=O)nc-3n(C[C@H](O)[C@H](O)[C@H](O)COP(=O)(O)OP(=O)(O)OC[C@H]3O[C@@H](n4cnc5c(N)ncnc54)[C@H](O)[C@@H]3O)c2cc1C` is recorded as 52% and 26% and 48.7% and 49% and 51% and 43.7% and 53% (Acyl-coenzyme A oxidase acox-1.1 (acox-1.1, Caenorhabditis elegans, UniProt O62140); UV spectroscopy).
The current density of `O=C(O)C1=CCNCC1` is reported as -78.9 pA/pF and -41 pA/pF and -14.6 pA/pF and -33 pA/pF and -16.4 pA/pF and -12.3 pA/pF (BEST1 (Homo sapiens, UniProt O76090); whole-cell patch clamp; HEK293 transiently expressing channel; concentration not given, membrane potential -60 mV).
`Cc1cccc(N2CC(C(=O)O)CC2=O)c1` (stereo not drawn) — result for “log fold enrichment”: 0.0948 (Leucine-rich repeat serine/threonine-protein kinase 2, WD40 domain (LRRK2, Homo sapiens, UniProt Q5S007); binding, affinity selection mass spectrometry; baseline: other proteins in batch).
The inhibition of `Cc1ccc(SCCOCCN2CC(C)OC(C)C2)cc1.Cl` (stereo not drawn) is reported as -1.6% (Trypanosoma cruzi; reporter translation, Renilla luciferase mRNA translation; cell-free extract; 40 µM; baseline: DMSO).
The labelling of `CC12CCC(C(=O)O)(c3nc(C#N)c(C#N)nc31)C2(C)C` (stereo not drawn) is reported as 10.5% (UCHL1; covalent, intact protein LC-MS; 12.5 µM).
The koff of `O=C(O)c1cccc(C(=O)O)n1` is reported as 0.00133 ± 0.000333 s⁻¹ (Beta-lactamase L1 (Stenotrophomonas maltophilia, UniProt P52700); enzyme activity, inhibitor; added: nitrocefin).
For `CN(C(=O)n1cnc(-c2ccc[n+]([O-])c2)c1)C1CCCCC1`, the ED50 was 5 µg/kg (Faah; enzyme activity, inhibitor; rat, liver; oral, 1 h).
The remaining activity of `O=C(O)c1ccc(Nc2ncc3c(n2)-c2ccc(Cl)cc2C(c2c(F)cccc2F)=NC3)cc1` is reported as 80% (Ret(h); kinase activity; 1 µM).
For `Cc1nc(CSc2nc(SCc3ccc(C(C)C)cc3)nc(=O)[nH]2)cs1`, “mean decatenated DNA” read 96.8% (TOP2B; decatenation; 7.8 µM).
For `CC(=O)N(Cc1cccnc1)c1cccc(-c2nc3ccccc3s2)c1`, the inhibition was 1.5% (Trypanosoma cruzi; reporter translation, Renilla luciferase mRNA translation; cell-free extract; 40 µM; baseline: DMSO).
The reaction rate of `Nc1nc2c(ncn2[C@@H]2O[C@H](COP(=O)(O)O)[C@@H](O)[C@H]2O)c(=O)[nH]1` is reported as 0.996 s⁻¹ and 0.696 s⁻¹ and 0.62 s⁻¹ (GUK1 (Homo sapiens, UniProt Q16774, R148A); enzyme activity, NADH-coupled; 125 µM).
With `O=C(CCl)NC(=O)Nc1ccccc1` the labelling was 13.5% (UCHL1; covalent, intact protein LC-MS; 12.5 µM).
Under “binding enthalpy (ΔH)”, `Nc1nc2c(ncn2[C@@H]2O[C@@H]3COP(=O)(O)O[C@H]4[C@@H](O)[C@H](n5cnc6c(=O)[nH]c(N)nc65)O[C@@H]4COP(=O)(O)O[C@H]3[C@H]2O)c(=O)[nH]1` is recorded as 1 kcal/mol (Cell cycle histidine kinase CckA, DHp-CA domains (Caulobacter vibrioides, UniProt Q9X688); isothermal titration calorimetry; Caulobacter crescentus; concentration not given, 12 °C, added: AMPPNP 5 mM).
The remaining activity of `CC(Cc1ccc(NS(=O)(=O)c2cc(Cl)cc(Cl)c2O)cc1)C(=O)O` (stereo not drawn) is reported as 99% (malate dehydrogenase; enzyme activity, inhibitor; 200 µM, pH 7.0, 1% DMSO, aggregation counter-screen).
The KI of `N=c1c[n+](N2CCOCC2)[n-]o1` is reported as 12 ± 4 µM (NAD-dependent protein deacetylase sirtuin-2 (SIRT2, Homo sapiens, UniProt Q8IXJ6); covalent inactivator, HPLC demyristoylase; pH 7.5, 37 °C, peroxynitrite donor, time-dependent, added: NAD+).
`COc1ccc(Cl)cc1N1CCN(Cc2cccnc2Oc2ccc(-c3c(C)c(=O)[nH]c(=O)n3C)c(C)c2)CC1` has a selectivity ratio of 1 (Alpha-2C adrenergic receptor (ADRA2C, Homo sapiens, UniProt P18825); binding, radioligand binding; added: [3H]rauwolscine; baseline: Ki alpha2A over Ki alpha2C).
`CC(=C/C(=O)O)/C=C/C=C(\C)C1C=C2C(C)(C)CCCC2(C)O1` (stereo not drawn): “Pearson correlation coefficient” 0.55 (Rhodopsin (RHO, Homo sapiens, UniProt P08100, P23H); ER retention, immunostaining co-localization, measured: opsin with calnexin; COS-7 transfected P23H; 50.00 µM).
For `C=CC1=C(C)C2=Cc3c(C=C)c(C)c4[n]3[Fe]([Cl])[n]3c(c(C)c(CCC(=O)O)c3=CC3=NC(=C4)C(C)=C3CCC(=O)O)=CC1=N2`, the Kd was 2.2 µM (T1, G-quadruplex DNA, intermolecular, 8-nt strands; UV-vis titration, Hill fit; KCl 100 mM, apparent, added: hemin 2 µM).
`Nc1nc2c(ncn2[C@@H]2O[C@H](COP(=O)(O)OP(=O)(O)OP(=O)(O)O)[C@@H](O)[C@H]2O)c(=O)[nH]1` gave a Kd of 0.0109 µM (T2, RNA aptamer del11, 5'-triphosphate, 2',3'-cyclic phosphate; ITC).
For `Cc1cnn(C(=O)N2CCN(Cc3ccc(OCc4ccccc4)cc3)CC2)c1`, “time to maximal inhibition” read roughly 3 h (Faah; inhibitor; 5 nM, pH 9, 25 °C).
With `Cc1c(CC(=O)NCCc2cccc(F)c2)c(=O)oc2cc(O)cc(O)c12` the luminescence was 48400 a.u. (Beta-1,4-galactosyltransferase 1 (B4GALT1, Homo sapiens, UniProt P15291); enzyme activity, inhibitor, UDP-Glo; 100 µM; lower means stronger inhibition).
`CC(=O)N[C@H](C(=O)N1C[C@H](O)C[C@H]1C(=O)NCc1ccc(-c2scnc2C)cc1)C(C)(C)SCCCCCCNC(=O)C[C@@H]1N=C(c2ccc(Cl)cc2)c2c(sc(C)c2C)-n2c(C)nnc21` gave a ΔG of -8.8 ± 0.2 kcal/mol (BRD4/VHL, BD1; with elongins B/C (Homo sapiens, UniProt O60885+P40337); ternary complex binding, ITC; 25 °C, added: VHL-ElonginB-ElonginC titrated into compound:PROTAC:Brd4^BD1 complex).
`CC[C@@H](C)[C@@H](NC(=O)[C@@H](Cc1ccc(O)cc1)NC(=O)[C@H]1CCCN1C(=O)[C@@H](CCCNC(=N)N)NC(=O)[C@H](N)Cc1c[nH]cn1)C(=O)N[C@H](C)C(=O)N[C@H](Cc1c[nH]cn1)C(=O)N[C@H](CCCNC(=N)N)C(=O)N[C@@H](C(=O)N[C@H](Cc1ccc(O)cc1)C(=O)N[C@H](CO)C(=O)N[C@H](Cc1ccccc1)C(N)=O)C(C)C`: “surface TFRC expression” 0.876 (Transferrin receptor protein 1 (Tfrc, Mus musculus, UniProt Q62351); flow cytometry; RAW264.7; 2 h, pH 6, replicate 3, unit not given; baseline: 0 h).
With `COc1cc2c(cc1OC)C(=O)C(CC1CCN(Cc3ccccc3)CC1)C2` (stereo not drawn) the inhibition was 0% (Voltage-dependent P/Q-type calcium channel subunit alpha-1A; ion current, antagonist; HEK293; 3 µM).
`C[C@H]1O[C@H](O[C@H]2[C@H](O)[C@@H](O)[C@@H](O[C@H]3[C@H](O)[C@@H](O)C(O)O[C@@H]3CO)O[C@@H]2CO)[C@H](O)[C@@H](O)[C@@H]1N[C@H]1C=C(CO)[C@@H](O)[C@H](O)[C@H]1O` (stereo partly drawn) gave a band share of 100% (α-amylase isoenzymes; native PAGE densitometry, measured: abnormal band; 1 mg/mL).
`N#CC(=Cc1ccc(Cl)cc1)C(N)=O` has a labelling of 6.91% (UCHL1; covalent, intact protein LC-MS; 12.5 µM).
For `Oc1ccc([C@@H]2c3c(O)cc(O)cc3[C@@H]3c4c(cc(O)c5c4[C@@H]2[C@H](c2ccc(O)cc2)[C@H]5c2cc(O)cc4c2[C@@H](c2cc(O)cc(O)c2)[C@H](c2ccc(O)cc2)O4)O[C@H]3c2ccc(O)cc2)cc1`, the Vmax was 663 ± 80 µmol/min (Alpha-amylase 1A (AMY1A, Homo sapiens, UniProt P0DUB6); enzyme activity; 0.5 µM).
`O=c1nc(SCc2cc(F)cc(C(F)(F)F)c2)nc(SCc2ccc3sccc3c2)[nH]1` has a decatenated DNA of 100% (TOP2B; decatenation; 7.8 µM, replicate 1).
`COc1cc(-c2cc(C(C)=O)n3ccccc23)c(OC)cc1Cn1ccnc1` gave a ΔTm of 4.1 °C (Bromodomain-containing protein 4, BD2 (BRD4, Homo sapiens, UniProt O60885)).
With `C#CC(C)(C)NC(=O)CN(c1ccc(OC)cc1)S(=O)(=O)c1ccccc1` the labelling was 18.9% (UCHL1; covalent, intact protein LC-MS; 12.5 µM).
With `Nc1ncnc2c1ncn2[C@@H]1O[C@H](COP(=O)(O)OP(=O)(O)OP(=O)(O)O)[C@@H](O)[C@H]1O` the Hill slope was 1 (P2X purinoceptor 1 (P2RX1, Homo sapiens, UniProt P51575); ion current, agonist, two-electrode voltage clamp; Xenopus oocytes; concentration-response curve).
`C=CC(=O)N1CCC[C@@H](n2nc(-c3ccc(Oc4ccccc4)cc3)c3c(N)ncnc32)C1` gave a remaining activity of 60.4% (Ephrin type-A receptor 7 (EPHA7, Homo sapiens, UniProt Q15375); 10 µM).
`C#CCOc1ccc(C=C2C(=O)ON=C2C)cc1OCC` gave a labelling of 21.9% (UCHL1; covalent, intact protein LC-MS; 12.5 µM).
`CC(C)NCC(O)COc1cccc2ccccc12` (stereo not drawn) gave an IC30 of 5.24 µM (Voltage-dependent P/Q-type calcium channel subunit alpha-1A; ion current, antagonist, automated patch clamp).
For `CC(=O)N[C@@H](Cc1ccccc1)C(=O)N1CCC[C@H]1C(=O)N1CCC[C@H]1C(=O)N1CCC[C@H]1C(=O)N1CCC[C@H]1C(=O)O`, “binding free energy” read -4.23 kcal/mol (Vasodilator-stimulated phosphoprotein, EVH1 domain (VASP, Homo sapiens, UniProt P50552); fluorescence titration; 25 °C).
`C=CC(=O)N1CCC(COCC(=O)N2CCN(c3nc(-c4cnc(N)nc4C(F)F)nc(N4CCOC[C@@H]4C)n3)CC2)CC1` gave a remaining binding of 50% (Tyrosine-protein kinase ABL1, non-phosphorylated (ABL1, Homo sapiens, UniProt P00519, F317L); KINOMEscan; 1 µM).

A few entries again:
`CC(=O)N[C@H](C(=O)N1C[C@H](O)C[C@H]1C(=O)NCc1ccc(-c2scnc2C)cc1)C(C)(C)SCCCCCCNC(=O)C[C@@H]1N=C(c2ccc(Cl)cc2)c2c(sc(C)c2C)-n2c(C)nnc21` gave a ΔG of -8.8 ± 0.2 kcal/mol (BRD4/VHL, BD1; with elongins B/C (Homo sapiens, UniProt O60885+P40337); ternary complex binding, ITC; 25 °C, added: VHL-ElonginB-ElonginC titrated into compound:PROTAC:Brd4^BD1 complex).
`CC[C@@H](C)[C@@H](NC(=O)[C@@H](Cc1ccc(O)cc1)NC(=O)[C@H]1CCCN1C(=O)[C@@H](CCCNC(=N)N)NC(=O)[C@H](N)Cc1c[nH]cn1)C(=O)N[C@H](C)C(=O)N[C@H](Cc1c[nH]cn1)C(=O)N[C@H](CCCNC(=N)N)C(=O)N[C@@H](C(=O)N[C@H](Cc1ccc(O)cc1)C(=O)N[C@H](CO)C(=O)N[C@H](Cc1ccccc1)C(N)=O)C(C)C`: “surface TFRC expression” 0.876 (Transferrin receptor protein 1 (Tfrc, Mus musculus, UniProt Q62351); flow cytometry; RAW264.7; 2 h, pH 6, replicate 3, unit not given; baseline: 0 h).
With `COc1cc2c(cc1OC)C(=O)C(CC1CCN(Cc3ccccc3)CC1)C2` (stereo not drawn) the inhibition was 0% (Voltage-dependent P/Q-type calcium channel subunit alpha-1A; ion current, antagonist; HEK293; 3 µM).
`C[C@H]1O[C@H](O[C@H]2[C@H](O)[C@@H](O)[C@@H](O[C@H]3[C@H](O)[C@@H](O)C(O)O[C@@H]3CO)O[C@@H]2CO)[C@H](O)[C@@H](O)[C@@H]1N[C@H]1C=C(CO)[C@@H](O)[C@H](O)[C@H]1O` (stereo partly drawn) gave a band share of 100% (α-amylase isoenzymes; native PAGE densitometry, measured: abnormal band; 1 mg/mL).
`N#CC(=Cc1ccc(Cl)cc1)C(N)=O` has a labelling of 6.91% (UCHL1; covalent, intact protein LC-MS; 12.5 µM).
